Measured values pooled from the literature.
Numbered parts are unrelated; each lists some results of a single study. Positions count from the first letter of the parent shown.

Series 1
Target: Interferon regulatory factor 3, full length, phosphomimetic (IRF3, Homo sapiens, UniProt Q14653, residues 1-427, S386D/S396D/S398D/S402D/T404D/S405D)
Sequence of UniProt Q14653 (whole entry, unmodified, looked up): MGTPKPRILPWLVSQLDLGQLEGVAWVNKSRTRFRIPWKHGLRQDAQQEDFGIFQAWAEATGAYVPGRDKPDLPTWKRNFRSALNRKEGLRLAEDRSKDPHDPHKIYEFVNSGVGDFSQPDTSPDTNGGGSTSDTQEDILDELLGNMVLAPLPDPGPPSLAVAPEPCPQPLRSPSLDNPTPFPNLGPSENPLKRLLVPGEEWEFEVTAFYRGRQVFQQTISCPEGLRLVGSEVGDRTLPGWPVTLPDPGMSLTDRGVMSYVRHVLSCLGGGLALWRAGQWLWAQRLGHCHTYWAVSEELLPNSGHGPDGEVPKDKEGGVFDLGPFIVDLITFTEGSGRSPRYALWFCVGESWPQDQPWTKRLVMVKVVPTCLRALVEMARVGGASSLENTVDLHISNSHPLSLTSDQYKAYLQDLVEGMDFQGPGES
Technique: protein-binding microarray
Molecule type: double-stranded DNA, one strand shown
Sample: in vitro
Tested at: 2540 nM top
Setting: 60-bp whole probe
Added: salmon DNA 0.4 mg/ml
Reference: random background probes
Direction: higher = stronger binding
All sequences stand within: GCCTAGCAC … GTCTTGATTCGCTTGACGCTGCTG
Under “fitted relative affinity”, `GACGATATCAGACTGGAGCCGTGCTAG` is recorded as 0.104 z-score.
Under “fitted relative affinity”, `TTAGGTATCCGTTTCCTTTAGTGCTAG` is recorded as 7.11 z-score.
`TCATTTCTCTTATTCTAACTGTGCTAG` — result for “fitted relative affinity”: 2.84 z-score.
`GACGGACTGCTTTTCATGACGTGCTAG` — result for “fitted relative affinity”: -0.0572 z-score.
`TTAGGACTGGACTTTCGGTGAGTGCTA` — result for “fitted relative affinity”: 0.131 z-score.
For `TGGCACCTCTAGACTCTAAATGTGCTA`, “fitted relative affinity” read -0.92 z-score.
`TTAGCTTTCAGACTGGATTAGTGCTAG` — result for “fitted relative affinity”: 0.342 z-score.
`GTAGGTATCGGTTTCGGTTAGTGCTAG`: “fitted relative affinity” 8.8 z-score.
Under “fitted relative affinity”, `TTAGGTTTCCGACTGGGTTAGTGCTAG` is recorded as 4.18 z-score.
`TTAGGTCTCGGTCTCGGTTCGTGCTAG` — result for “fitted relative affinity”: 1.43 z-score.
`GACGATTTCGGGTATCTAGACGTGCTA` — result for “fitted relative affinity”: 1.79 z-score.
Under “fitted relative affinity”, `TCATGTTTGAGAAATCAGACTGTGCTA` is recorded as -0.0317 z-score.
`GTCGGTATCGGTATCGGGACGTGCTAG` — result for “fitted relative affinity”: 5.96 z-score.
Under “fitted relative affinity”, `GACGGTGCCGGTTTCGGGACGTGCTAG` is recorded as 3.33 z-score.
Under “fitted relative affinity”, `GACGGACTGGGTCTCGGCACGTGCTAG` is recorded as -0.846 z-score.
For `TTAGGATTCGGTTCCGGTTAGTGCTAG`, “fitted relative affinity” read 5.96 z-score.

Series 2
Target: DDIT3, bZIP domain (human)
Technique: DHFR protein complementation
Sample: yeast
Setting: single substitutions, most at no-binding floor
Reference: wild-type JUN-FOS pair
Direction: higher = stronger binding
Parent: JUN, bZIP domain (human); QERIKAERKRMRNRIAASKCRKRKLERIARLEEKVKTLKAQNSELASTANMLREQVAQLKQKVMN; partner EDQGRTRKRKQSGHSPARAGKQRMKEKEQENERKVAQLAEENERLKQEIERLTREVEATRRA
`T37A` has a binding fitness of 0.135 natural log.
With `R53H` the binding fitness was -0.542 natural log.
`A57V` gave a binding fitness of -0.022 natural log.
For `A49D`, the binding fitness was -1.37 natural log.
`I28Q` has a binding fitness of -0.0181 natural log.
`E44T` gave a binding fitness of -0.0835 natural log.
With `L38Q` the binding fitness was -1.29 natural log.
With `L31C` the binding fitness was -0.773 natural log.
For `T48E`, the binding fitness was -0.149 natural log.
`L31F` gave a binding fitness of -0.452 natural log.
`A40C` has a binding fitness of -0.142 natural log.
The binding fitness of `M51D` is reported as 0.0734 natural log.
With `L52F` the binding fitness was -1.09 natural log.
With `E44H` the binding fitness was -0.0667 natural log.
With `A49W` the binding fitness was -0.546 natural log.
`A57R` has a binding fitness of -0.0327 natural log.
For `R53G`, the binding fitness was -0.776 natural log.
For `I28H`, the binding fitness was -0.125 natural log.
For `V35L`, the binding fitness was 0.0388 natural log.
For `A40Y`, the binding fitness was -0.213 natural log.
With `M51L` the binding fitness was 0.0608 natural log.
With `A57Q` the binding fitness was -0.0286 natural log.
The binding fitness of `R53V` is reported as -0.615 natural log.
With `T37N` the binding fitness was 0.0965 natural log.
`I28L` gave a binding fitness of 0.0679 natural log.

Series 3
Target: Ras GTPase-activating protein-binding protein 1, full length (G3BP1, Homo sapiens, UniProt Q13283)
Sequence of UniProt Q13283 (whole entry, looked up): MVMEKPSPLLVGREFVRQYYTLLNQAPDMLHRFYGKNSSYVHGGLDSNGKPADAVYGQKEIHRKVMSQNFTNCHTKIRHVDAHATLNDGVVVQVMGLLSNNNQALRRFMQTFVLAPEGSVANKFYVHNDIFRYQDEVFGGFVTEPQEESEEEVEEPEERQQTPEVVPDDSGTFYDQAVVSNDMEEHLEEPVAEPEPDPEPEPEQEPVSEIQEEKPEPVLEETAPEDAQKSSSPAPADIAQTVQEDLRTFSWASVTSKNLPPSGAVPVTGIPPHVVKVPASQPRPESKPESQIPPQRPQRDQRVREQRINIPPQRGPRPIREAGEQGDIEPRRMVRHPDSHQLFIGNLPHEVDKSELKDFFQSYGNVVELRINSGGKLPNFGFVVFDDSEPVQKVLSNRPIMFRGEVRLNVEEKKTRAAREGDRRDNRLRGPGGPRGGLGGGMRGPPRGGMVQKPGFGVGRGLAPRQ
Technique: RNA Bind-n-Seq
Molecule type: RNA
Sample: in vitro
Tested at: 200 nM
Setting: whole 134-nt RNA, ends assumed
Added: 150 mM LiCl
Reference: input library
Direction: higher = stronger binding
Library: 7-deaza-guanosine replaces G
For `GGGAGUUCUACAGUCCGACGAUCCAAGUCCUGUGCUACACAUCGUAUGUACCGAAUCGGCCCGGCCCGGGGCCCGGGGAAAGUAUUAUGUUACGCCGUUCGGAUCUGCACUUCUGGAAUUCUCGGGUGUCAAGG`, the log2 enrichment was -0.831.
The log2 enrichment of `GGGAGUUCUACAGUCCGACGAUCAGUCCUGUGCUACACAUCGUAUGUACCGAAUCGGUUUUUGGUUUUUGGUUUUUUUGGAAAGUAUUAUGUUACGCCGUUCGGAUCUGCACUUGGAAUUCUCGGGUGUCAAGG` is reported as -1.35.
`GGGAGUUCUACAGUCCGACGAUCUCUAGAUACAGAUGCACGAUUUGGCCAUGGAUCCGACUACUCUCGCCAACAGAACAGAUUUAAUGACUUUGAUCACCGAGAGAGGGGCAGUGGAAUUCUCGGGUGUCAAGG` has a log2 enrichment of -1.21.
For `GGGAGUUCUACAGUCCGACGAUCGCAGGAAGUAAAAACAAAUGGAAAUGCUUCGGAUAGUGGCAGGGGUGGGGGUGGCUAAGGAAAGGGUGGGAUGGGAGUGGGUAAAGAGUUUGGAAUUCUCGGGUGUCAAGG`, the log2 enrichment was 0.0816.
The log2 enrichment of `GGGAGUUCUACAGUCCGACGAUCUCCUGUGCUACACAUCGUAUGUACCGAAUCGGGAAAAAAGGAAAAAAGGGAAAAAAGGGGAAAGUAUUAUGUUACGCCGUUCGGAUCUGCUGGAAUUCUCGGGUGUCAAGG` is reported as -0.441.
`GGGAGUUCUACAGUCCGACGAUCAGUCCUGUGCUACACAUCGUAUGUACCGAAUCGGGGUUUUGGGGUUUUGGGGUUUUGGAAAGUAUUAUGUUACGCCGUUCGGAUCUGCACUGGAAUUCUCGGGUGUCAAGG` gave a log2 enrichment of 0.473.
`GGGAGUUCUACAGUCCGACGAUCUCAAGGGUUAUACACGGAAAGCCGCUGCGCUGGAAGCGAUGAAGGACUACACCAAAGCCAUGGAUGUGUACCAGAAGGCGCUAGACCUGGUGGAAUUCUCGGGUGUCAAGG` gave a log2 enrichment of -0.496.
`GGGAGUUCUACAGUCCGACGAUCAGUCCUGUGCUACACAUCGUAUGUACCGAAUCGGAAAAAGGUUUUUUUGGUUUUUGGAAAGUAUUAUGUUACGCCGUUCGGAUCUGCACUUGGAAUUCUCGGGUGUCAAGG` gave a log2 enrichment of -3.24.
The log2 enrichment of `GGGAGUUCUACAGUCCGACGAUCCAAGUCCUGUGCUACACAUCGUAUGUACCGAAUCGGGGAAAGGGAAAGGAAAGGGAAAGUAUUAUGUUACGCCGUUCGGAUCUGCACUUCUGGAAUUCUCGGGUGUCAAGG` is reported as -0.261.
`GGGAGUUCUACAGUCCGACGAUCCAAGUCCUGUGCUACACAUCGUAUGUACCGAAUCGGGGAGGGGAAAGGGGAGGGGAAAGUAUUAUGUUACGCCGUUCGGAUCUGCACUUCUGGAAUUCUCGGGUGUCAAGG` has a log2 enrichment of 0.421.
`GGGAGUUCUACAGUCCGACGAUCACCAUGCAGGUGGGCAUCUUUGGGAAGUGGGGCAAGGGGGGGAUAGGGAGGGGGGUAACACUUUGGGAACAGGUGGUCCCAGGACGUUUCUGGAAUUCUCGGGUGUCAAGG` has a log2 enrichment of 0.21.

Series 4
Target: ABI1, truncated, D143A, DHFR fusion (Arabidopsis thaliana)
Technique: DHFR PCA, deep sequencing
Sample: yeast
Setting: methotrexate growth selection, single substitutions
Added: (+)-ABA 2500 µM
Reference: wild-type fitted maximum
Direction: higher = stronger binding
Parent: PYL1, truncated, DHFR fusion (Arabidopsis thaliana); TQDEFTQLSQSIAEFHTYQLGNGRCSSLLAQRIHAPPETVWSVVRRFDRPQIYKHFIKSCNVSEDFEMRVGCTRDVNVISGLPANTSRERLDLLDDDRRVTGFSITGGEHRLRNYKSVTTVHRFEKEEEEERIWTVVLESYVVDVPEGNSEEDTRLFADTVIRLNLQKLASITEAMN; partner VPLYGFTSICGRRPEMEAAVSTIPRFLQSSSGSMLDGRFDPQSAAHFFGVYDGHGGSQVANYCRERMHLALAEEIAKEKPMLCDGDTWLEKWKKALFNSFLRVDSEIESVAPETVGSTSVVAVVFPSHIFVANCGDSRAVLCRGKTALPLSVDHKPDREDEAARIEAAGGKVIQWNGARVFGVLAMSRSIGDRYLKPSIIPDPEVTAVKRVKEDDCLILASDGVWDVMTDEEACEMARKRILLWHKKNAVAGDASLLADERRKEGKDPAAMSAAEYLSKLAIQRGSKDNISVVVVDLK
`Q2N` — result for “relative binding score”: 98.6%.
`A170F`: “relative binding score” 45.1%.
For `R163G`, “relative binding score” read 88.1%.
Under “relative binding score”, `T6L` is recorded as 107%.
Under “relative binding score”, `P146R` is recorded as 63%.
Under “relative binding score”, `V78T` is recorded as 94.7%.
Under “relative binding score”, `D48Y` is recorded as 69.4%.
Under “relative binding score”, `E67K` is recorded as 95.1%.
`R45Y`: “relative binding score” 56.3%.
Under “relative binding score”, `P146S` is recorded as 87.9%.
`L28R`: “relative binding score” 100%.
Under “relative binding score”, `F15A` is recorded as 77.7%.

Series 5
Target: CCNB2, cyclin fold, Cln2 fusion (human)
Technique: yeast growth competition, sequencing
Sample: yeast
Setting: weak parent motif
Reference: not given
Direction: higher = stronger binding
Parent: SCAPER docking peptide (human); SNARRSLNFGGST
For `SNARRSLYFGGST [N8Y]`, “normalised enrichment score” read -0.334.
`SNARRDLNFGGST [S6D]`: “normalised enrichment score” -0.0461.
Under “normalised enrichment score”, `SQARRSLNFGGST [N2Q]` is recorded as 0.222.
For `SNARRSLNFGFST [G11F]`, “normalised enrichment score” read 0.207.
For `SNARRSHNFGGST [L7H]`, “normalised enrichment score” read 0.384.
Under “normalised enrichment score”, `SNAWRSLNFGGST [R4W]` is recorded as 0.267.
For `SNARRSLNFGGIT [S12I]`, “normalised enrichment score” read 0.166.
`SNARRSLNFEGST [G10E]` — result for “normalised enrichment score”: -0.00737.
`SNARRSGNFGGST [L7G]` — result for “normalised enrichment score”: 0.0415.
Under “normalised enrichment score”, `SNARRVLNFGGST [S6V]` is recorded as 0.0746.
For `SRARRSLNFGGST [N2R]`, “normalised enrichment score” read 0.671.
For `SCARRSLNFGGST [N2C]`, “normalised enrichment score” read -0.264.
`SNNRRSLNFGGST [A3N]`: “normalised enrichment score” 0.783.
Under “normalised enrichment score”, `SNARRSLPFGGST [N8P]` is recorded as 0.306.
`SNARKSLNLGGST [R5K F9L]` — result for “normalised enrichment score”: -0.0128.
For `SNARRSMNFGGST [L7M]`, “normalised enrichment score” read 0.339.
For `SNGRRSLNFGGST [A3G]`, “normalised enrichment score” read 0.199.
Under “normalised enrichment score”, `LNARRSLNFGGST [S1L]` is recorded as -0.0641.

Series 6
Target: CRIPT, C-terminal peptide
Technique: DHFR complementation, deep sequencing
Sample: yeast
Setting: single substitutions, model-inferred values
Reference: wild type
Direction: higher = weaker binding
Parent: ERBIN, PDZ domain 1 (human); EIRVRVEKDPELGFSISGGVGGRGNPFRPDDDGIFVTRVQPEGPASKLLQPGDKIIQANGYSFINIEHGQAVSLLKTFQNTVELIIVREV; partner TKNYKQTSV
`R23T`: “binding free energy change” -0.575 kcal/mol.
Under “binding free energy change”, `G19P` is recorded as 1.32 kcal/mol.
Under “binding free energy change”, `N25C` is recorded as 0.939 kcal/mol.
`F27H`: “binding free energy change” 0.796 kcal/mol.
`G13C`: “binding free energy change” 0.72 kcal/mol.
Under “binding free energy change”, `N59S` is recorded as 0.171 kcal/mol.
`K76G`: “binding free energy change” 0.71 kcal/mol.
Under “binding free energy change”, `V4W` is recorded as 0.415 kcal/mol.
`G13F` — result for “binding free energy change”: -0.0972 kcal/mol.
`G52S` — result for “binding free energy change”: 0.0582 kcal/mol.
Under “binding free energy change”, `L49V` is recorded as -0.334 kcal/mol.
For `P51D`, “binding free energy change” read 0.448 kcal/mol.
Under “binding free energy change”, `Q57L` is recorded as 0.143 kcal/mol.
For `S46K`, “binding free energy change” read 0.0187 kcal/mol.
For `Q50V`, “binding free energy change” read -0.0464 kcal/mol.
For `E7C`, “binding free energy change” read 0.0928 kcal/mol.
Under “binding free energy change”, `V36D` is recorded as 1.21 kcal/mol.

Some of these lines once more (series 2):
`A57V` gave a binding fitness of -0.022 natural log.
`L31F` gave a binding fitness of -0.452 natural log.
With `A49W` the binding fitness was -0.546 natural log.
The binding fitness of `M51D` is reported as 0.0734 natural log.
With `L31C` the binding fitness was -0.773 natural log.
With `L38Q` the binding fitness was -1.29 natural log.
With `L52F` the binding fitness was -1.09 natural log.
With `M51L` the binding fitness was 0.0608 natural log.
